# Results of several laboratories.
# Each line is one published result; not all experiments were run side by side. Values joined by “and” are separate records of one study, mostly repeats; a detail may differ.
# Target: Mitogen-activated protein kinase 11 (MAPK11, Homo sapiens, UniProt Q15759)
# UniProt Q15759, sequence (whole entry, looked up): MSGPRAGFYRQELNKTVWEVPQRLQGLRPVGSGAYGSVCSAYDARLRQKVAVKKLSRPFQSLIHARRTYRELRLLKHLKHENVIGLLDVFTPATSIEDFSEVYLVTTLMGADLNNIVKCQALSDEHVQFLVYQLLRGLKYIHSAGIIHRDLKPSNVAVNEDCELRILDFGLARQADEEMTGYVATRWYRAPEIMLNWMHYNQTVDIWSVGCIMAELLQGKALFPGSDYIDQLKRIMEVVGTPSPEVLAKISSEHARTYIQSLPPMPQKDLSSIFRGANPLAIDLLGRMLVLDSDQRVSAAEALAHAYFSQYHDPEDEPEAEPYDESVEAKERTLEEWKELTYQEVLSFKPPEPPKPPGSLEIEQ
Structure (SMILES),assay,conditions,how to read,endpoint,result
CS(C)(=O)=Nc1ccc(-c2ccc(-c3nc4cc(O[C@@H]5CO[C@H]6[C@@H]5OC[C@H]6O)[nH]c4cc3F)cc2)cc1,"enzyme activity, inhibitor",10 µM,,inhibition,11%
O=C(O)c1ccccc1/C=N/Nc1nc(-c2ccccc2Cl)cs1,"enzyme activity, inhibitor",1 µM,,inhibition,4.93%
[CH3][Ti+2][O]C(=O)c1ccc([S][Au][PH](c2ccccc2)(c2ccccc2)c2ccccc2)cc1.c1cc[cH-]c1.c1cc[cH-]c1,"kinase activity, HotSpot kinase","1 µM, with: ATP 10 µM",,remaining activity,116% and 121%
C[C@H](NCc1ccc(-c2ccc(C(F)(F)F)cc2)cc1)C(N)=O,"cell-free assay, competition with immobilised ligand",1 µM,,inhibition,0%
Nc1ccc(/C=C/C(=O)N2CCc3c(oc4c(-c5ccc(F)cc5)cc(-c5ccc(C(=O)N6CCC(F)(F)CC6)cn5)cc34)C2)cn1,"binding, competition with immobilised ligand",1 µM,,remaining binding,97%
CC(C)[C@H]1NC(=O)C[C@H]2/C=C/CCSSC[C@@H](NC1=O)C(=O)N[C@H](Cc1cccc3ccccc13)C(=O)NCC(=O)O2,"enzyme activity, inhibitor",10 µM,,inhibition,2.6%
O=C1NC(=O)c2c1c1cc(F)c[n+]3c1c1c2c2cc(O)ccc2[n]1[Ru-4]312([N]=C=S)[S+]3CC[S+]1CC[S+]2CC3 (centres unmarked),enzyme activity,"100 nM, human enzyme, with: 10 µM ATP",relative to: untreated,remaining activity,98%
CCOC(=O)[C@@H]1Cc2c(cc([N+](=O)[O-])cc2[N+](=O)[O-])[C@H](O)[C@]12C(=O)Nc1ccc(Br)cc12,"binding, competition with immobilised ligand",0.1 µM,,remaining binding,99%

# Repeated from above:
Structure (SMILES),assay,conditions,how to read,endpoint,result
[CH3][Ti+2][O]C(=O)c1ccc([S][Au][PH](c2ccccc2)(c2ccccc2)c2ccccc2)cc1.c1cc[cH-]c1.c1cc[cH-]c1,"kinase activity, HotSpot kinase","1 µM, with: ATP 10 µM",,remaining activity,116% and 121%
